Measured values gathered from unrelated publications.
A part holds a random share of what one study measured.

Sample 1 — technique: protein binding microarray; molecule type: double-stranded DNA, one strand shown; medium: in vitro; tested at: not given; baseline: not given; direction: higher = stronger binding
Target: Histone acetyltransferase KAT6A, winged helix 1, GST fusion (KAT6A, Homo sapiens, UniProt Q92794, residues 1-85)
Notes: 8-mer, flanks averaged, mean of 2 arrays, mostly near background
Residues (chain): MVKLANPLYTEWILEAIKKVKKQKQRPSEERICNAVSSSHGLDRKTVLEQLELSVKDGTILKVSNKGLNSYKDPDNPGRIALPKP
Sequence | E-score
AATCGCAC | -0.0366
TCTGCCAA | -0.226
AAGTGCTA | -0.182
AATTTCCT | -0.215
ACCGGTTG | -0.0524
GAATATTC | 0.099
ATTGTTGA | -0.232
ATACCAGC | -0.135
GCCATTCC | 0.0287
GCTATGAC | 0.0564
CGATGCAC | -0.102
ATAAAGCC | 0.0251
GTTTTTGA | -0.192
GCGACGCA | 0.339
CCGGATGA | -0.0719
TGCTGGAA | -0.159
GTGCACAA | -0.216
GGAATCCC | -0.0524
CTGAACGC | 0.132
ACAGGACT | -0.196
GGACCTCA | -0.13
ATATGTTG | -0.096
CGAAGAAA | -0.169
AGCGCACG | 0.339
ACAGTATC | -0.193

Sample 2 — technique: protein-binding microarray; molecule type: double-stranded DNA, one strand shown; medium: in vitro; tested at: 940 nM top; notes: 60-bp whole probe; with: salmon DNA 0.4 mg/ml; baseline: random background probes; direction: higher = stronger binding; all sequences stand within: GCCTAGCAC … GTCTTGATTCGCTTGACGCTGCTG
Target: Interferon regulatory factor 5, full length, phosphomimetic (IRF5, Homo sapiens, UniProt Q13568-2, residues 1-514, S451D/S453D/S456D/S462D)
Sequence | fitted relative affinity
GACGAACTAAGTATCGAGACGTGCTAG | 1.2 z-score
TTAGGTCTCCTCCTGCTTTAGTGCTAG | 0.256 z-score
TTAGGTAGCGGACTGGGTTAGTGCTAG | -0.231 z-score
TCATCTCTAATTTTGAGACTGTGCTAG | 0.0836 z-score
TCAGAACTCAACTGTCTGACTGTGCTA | -0.125 z-score
GGTCTTCTGGGCTGTTTAGTCGTGCTA | -0.276 z-score
TTACATCTCAGTCTCGATTAGTGCTAG | 3.7 z-score
TCATCACTCTAATCTCACACTGTGCTA | 0.962 z-score
CCTTTTATGGTTTTTTTTTAGTGCTAG | 1.42 z-score
GACGGTTTCCTACTCCTGACGTGCTAG | 0.933 z-score
TTAGGTATCCTCATCCTTTAGTGCTAG | 0.208 z-score
TTAGGAGTGGGTCTCGGTTAGTGCTAG | 1.46 z-score
AAATATATACAAACTAAGGATGTGCTA | 0.112 z-score
TCATTTTTATTTATAAAACTGTGCTAG | -0.242 z-score
TCACCTGTCCATTCCTTACTGTGCTAG | 1.35 z-score
GACGGTTTCAGTATCGAGACGTGCTAG | 6.71 z-score
TCAACTTTCCAAAGCGTACTGTGCTAG | 0.396 z-score
TCACTTTTCACTTTCTTACTGTGCTAG | 2.34 z-score
GACCGACTGGGACTGGGGACGTGCTAG | -0.802 z-score

Sample 3 — technique: aptamer microarray, sandwich; molecule type: DNA with 2'F-ANA; medium: in vitro; tested at: 200 nM; with: Cy3 exosite-II aptamer, 400 nM; direction: higher = stronger binding; sequence: GGTTGGTGTGGTTGG
Target: Prothrombin, mature alpha-thrombin (F2, Homo sapiens, UniProt P00734)
Notes: whole 15-mer aptamer, many near background
Modification | mean fluorescence intensity [a.u.]
2'F-ANA at 1 3 4 7 13 15 | 200
2'F-ANA at 2 7 15 | 538
2'F-ANA at 1 3 4 6 8 9 10 12 | 87.8
2'F-ANA at 4 5 6 7 9 11 12 14 15 | 51.1
2'F-ANA at 4 6 8 12 13 14 | 101
2'F-ANA at 3 4 5 8 10 11 13 15 | 70.4
2'F-ANA at 1 2 3 4 7 11 12 13 14 15 | 72.1
2'F-ANA at 1 2 3 4 5 12 13 15 | 100
2'F-ANA at 2 9 | 497
2'F-ANA at 1 2 5 15 | 60.7
2'F-ANA at 8 9 10 11 14 15 | 98.9
2'F-ANA at 3 5 6 9 10 11 12 14 15 | 95.8
2'F-ANA at 2 5 6 7 8 10 11 15 | 55.6
2'F-ANA at 1 3 4 10 12 13 14 | 52.3
2'F-ANA at 7 11 12 14 15 | 224
2'F-ANA at 1 3 4 5 8 9 13 | 48.3

Sample 4 — technique: RNA Bind-n-Seq; molecule type: RNA; medium: in vitro; tested at: 200 nM; notes: whole 134-nt RNA, ends assumed; with: 150 mM KCl; baseline: input library; direction: higher = stronger binding
Target: Ras GTPase-activating protein-binding protein 1, full length (G3BP1, Homo sapiens, UniProt Q13283)
Sequence of UniProt Q13283 (whole entry, looked up): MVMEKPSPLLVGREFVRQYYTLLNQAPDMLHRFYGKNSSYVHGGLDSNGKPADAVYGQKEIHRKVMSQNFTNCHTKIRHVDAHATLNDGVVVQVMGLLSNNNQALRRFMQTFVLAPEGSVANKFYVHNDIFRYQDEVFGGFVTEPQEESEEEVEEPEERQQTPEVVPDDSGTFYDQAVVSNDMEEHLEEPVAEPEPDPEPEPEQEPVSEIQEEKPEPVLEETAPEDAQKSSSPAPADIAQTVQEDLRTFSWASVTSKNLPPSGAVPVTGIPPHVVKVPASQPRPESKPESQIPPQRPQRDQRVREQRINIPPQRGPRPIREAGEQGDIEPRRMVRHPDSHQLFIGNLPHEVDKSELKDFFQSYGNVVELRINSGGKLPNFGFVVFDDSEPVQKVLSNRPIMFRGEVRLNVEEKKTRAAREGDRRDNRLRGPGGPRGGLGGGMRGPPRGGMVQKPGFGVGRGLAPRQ
All sequences stand within: GGGAGUUCUACAGUCCGACGAUC … UGGAAUUCUCGGGUGUCAAGG
Sequence | log2 enrichment
UUAGAUGAGGACCUUGAGAUUGAAUUGGUUGAGGAAGAGCCUCCAUUCCUGAGAGGGCACACUAAGCAAAGCAUGGACAUGAGCCCCAUU | -0.446
AGUCCUGUGCUACACAUCGUAUGUACCGAAUCGGGGUUUUGGGGUUUUGGUUUUGGGAAAGUAUUAUGUUACGCCGUUCGGAUCUGCACU | -0.353
AAGUCCUGUGCUACACAUCGUAUGUACCGAAUCGGGGUUUUGGUUUUGGUUUUGGGGAAAGUAUUAUGUUACGCCGUUCGGAUCUGCACU | -0.901
UCAAGUCCUGUGCUACACAUCGUAUGUACCGAAUCGGUGGAAAAAGGAAAAAGGAAAGUAUUAUGUUACGCCGUUCGGAUCUGCACUUCC | -0.756
CCUGUGCUACACAUCGUAUGUACCGAAUCGGGGAAAAAGGGGUUUUUGGGGAAAAAGGGGAAAGUAUUAUGUUACGCCGUUCGGAUCUGC | 0.299
GCCCUGUAAUCGUGGAGAUCCCGCACUUUGCCUCCCAUGGCCGUGGAGACCGCGAGCUCGUGGUUCUGAGGAGCGAAAACGGCUCCGUGU | -1.76
UCCUCAAGUCCUGUGCUACACAUCGUAUGUACCGAAUCGGUGGGGUGGUGGAAAGUAUUAUGUUACGCCGUUCGGAUCUGCACUUCCAGC | -0.387
UAGUGAUGGUCCUAAAUAGCAUGAGUGUCAGCUGGAGCGCCCGGAUCCAGAUUUUCUUAACCUUUUGCAAGCUCACAGCAAUUCUGAUAA | -0.583
UGCUUCAUCGCCUUGUGCUCCUGCCCCUGGGAGCUGUGGAUCCCAGAUCCAGAUGACAGCCCACCUUGCUGGCAGGAUGCGCCAAUCCCC | -0.237

Repeated from above (sample 1):
Sequence | E-score
ATTGTTGA | -0.232
ATACCAGC | -0.135
GCCATTCC | 0.0287
GCTATGAC | 0.0564
CGATGCAC | -0.102
ATAAAGCC | 0.0251
GTTTTTGA | -0.192
GCGACGCA | 0.339
CCGGATGA | -0.0719
